Measured values pooled from the literature.
Lines come from different studies, so protocols differ. Values joined by “and” are separate records of one study, mostly repeats; a detail may differ. Numbers after ± are the reported error.

`O=C(O)c1ccc(-c2nc(-c3ccccc3Cl)c3sccn23)cc1` gave a platelet recovery of 275% and 330% and 262% and 331% and 241% and 336% and 314% and 260% (C57BL/6 mice, 5-fluorouracil treated; oral, 100 mg/kg daily, day 10).
With `COc1ccccc1-c1n[nH]c2nc(NC3CCN(C(=O)Cc4ccc(F)cc4F)CC3)ncc12` the relative abundance was 0.85 (bead binding, competition bead pull-down, refers to: LINJ.25.0940; Leishmania donovani extract; 10 µM; reference: vehicle).
`CC(C)C[C@H](NC(=O)CN)C(=O)N[C@@H](CCCCN)C(=O)N[C@@H](CCCCN)C(=O)N[C@@H](CS)C(=O)NCC(=O)N[C@@H](CCCCN)C(=O)N[C@@H](CCCCN)C(=O)N[C@@H](CCCCN)C(=O)N[C@@H](CC(C)C)C(=O)N[C@@H](CCCCN)C(=O)N[C@@H](CCCCN)C(=O)N[C@@H](CS)C(=O)O`: “ABTS radical scavenging” 0.898 fraction (0-1) (absorbance at 734 nm; 1 mg/mL, 5 min, room temperature).
With `O=C1NC2(CC2)COc2ncc(F)cc2[C@H]2COCCN2c2ccn3ncc1c3n2` the organ weight was 0.617 ± 0.179 g (Sprague-Dawley rat, male, thymus; oral, 2.5 mg/kg/day, 4 weeks).
With `C[C@H](NCc1ccc(-c2ccc(C(F)(F)F)cc2)cc1)C(N)=O` the step-through latency was 49.9 ± 21.5 s (passive avoidance, acquisition; APP/PS1 mice; oral, 10 mg/kg, 672 h, 4 weeks dosing).
With `CC(C)C[C@@H]1NC(=O)[C@@H](Cc2c[nH]c3ccccc23)NC(=O)[C@H](CCCNC(=N)N)NC(=O)[C@@H](CCC(=O)O)NC(=O)[C@H](CCC(N)=O)NC(=O)[C@@H](CCC(=O)O)NC(=O)[C@H](CCCNC(=N)N)NC(=O)[C@@H](Cc2c[nH]c3ccccc23)NC1=O` the cytokine level was 7.3 ± 5.9 pg/g tissue (refers to: IL13; LDLr-/- mouse on Western diet, liver; dose not given, 4 weeks).
`COc1ccccc1-c1n[nH]c2nc(N[C@H]3CC[C@H](NS(=O)(=O)CC(C)C)CC3)ncc12` gave a relative abundance of 0.98 (bead binding, competition bead pull-down, refers to: LMJF.21.0280; Leishmania donovani extract; 10 µM; reference: vehicle).
Under “action potential amplitude”, `CCN(Cc1ccccc1)C(=O)CCc1nc(CN2CCN(C(=O)Cc3ccc(OC)c(OC)c3)CC2)no1` is recorded as 71.2 ± 8.48 mV (current clamp; DRG neurons, naive rat; 10 µM).
`CCc1nnc(-c2c(OC)cc(-c3cnc4cc(-c5cnn(C)c5)ccn34)cc2OC)o1`: “mineralizing surface/bone surface” 0.779 ± 0.09% (histomorphometry; male C57BL/6J mouse, tibia; oral gavage, 40 mg/kg once daily, 3 wk).
`CCCC[C@@H]1NC(=O)[C@H](Cc2ccc(O)cc2)NC(=O)[C@@H]2CCCN2C(=O)[C@H](CC(=O)O)NC(=O)[C@H](C)NC(=O)[C@H](Cc2ccccc2)NC(=O)[C@@H]2CSCCC(=O)N3CN(CN(C3)C(=O)CCSC[C@@H](C(=O)N[C@@H](C)C(N)=O)NC1=O)C(=O)CCSC[C@H](NC(C)=O)C(=O)N[C@@H](CC(C)(C)C)C(=O)N1CCC[C@H]1C(=O)N[C@@H](CCC(=O)O)C(=O)N[C@H](CCCCNC(=O)CCc1cn(CCOCCOCCOCCN(CCOCCOCCOCCC(=O)N[C@H]3CSCCC(=O)N4CN5CN(C4)C(=O)CCSC[C@H](NC(=O)[C@@H](CC(=O)O)NC(=O)[C@H](Cc4cccc6ccccc46)NC(=O)[C@@H]4CCCN4C3=O)C(=O)N[C@@H](CCSC)C(=O)N[C@@H](CCCCNC(=N)N)C(=O)N[C@@H](CC(=O)O)C(=O)N[C@@H](Cc3c[nH]c4ccccc34)C(=O)N[C@@H](CO)C(=O)N[C@@H]([C@@H](C)O)C(=O)N3CCC[C@H]3C(=O)N3C[C@H](O)C[C@H]3C(=O)N[C@@H](Cc3c[nH]c4ccccc34)C(=O)N[C@H](C(N)=O)CSCCC5=O)CCOCCOCCOCCn3cc(CCC(=O)NCCCC[C@H]4NC(=O)[C@H](CCC(=O)O)NC(=O)[C@@H]5CCCN5C(=O)[C@H](CC(C)(C)C)NC(=O)[C@@H](NC(C)=O)CSCCC(=O)N5CN6CN(C5)C(=O)CCSC[C@H](NC(=O)[C@H](Cc5ccc(O)cc5)NC(=O)[C@@H]5CCCN5C4=O)C(=O)N[C@@H](Cc4ccccc4)C(=O)N[C@@H](C)C(=O)N[C@@H](CC(=O)O)C(=O)N4CCC[C@H]4C(=O)N[C@@H](Cc4ccc(O)cc4)C(=O)N[C@@H](CCCC)C(=O)N[C@H](C(=O)N[C@@H](C)C(N)=O)CSCCC6=O)nn3)nn1)C(=O)N1CCC[C@H]1C(=O)N[C@@H](Cc1ccc(O)cc1)C(=O)N2` gave a mRNA level of 0.439 (NanoString, refers to: Cd7-mRNA; mouse bearing MC38-Nectin-4 tumour, circulating white blood cells; 5 mg/kg, 24 h after dosing, unit not given; reference: vehicle).
The normalised absorbance of `NNC(=O)c1ccccc1` is reported as 0.377 (hydrazine ligation kinetics, absorbance; concentration not given, 10 s, together with: 2-formylphenylboronic acid).

Some of these lines once more:
Under “action potential amplitude”, `CCN(Cc1ccccc1)C(=O)CCc1nc(CN2CCN(C(=O)Cc3ccc(OC)c(OC)c3)CC2)no1` is recorded as 71.2 ± 8.48 mV (current clamp; DRG neurons, naive rat; 10 µM).
With `CC(C)C[C@@H]1NC(=O)[C@@H](Cc2c[nH]c3ccccc23)NC(=O)[C@H](CCCNC(=N)N)NC(=O)[C@@H](CCC(=O)O)NC(=O)[C@H](CCC(N)=O)NC(=O)[C@@H](CCC(=O)O)NC(=O)[C@H](CCCNC(=N)N)NC(=O)[C@@H](Cc2c[nH]c3ccccc23)NC1=O` the cytokine level was 7.3 ± 5.9 pg/g tissue (refers to: IL13; LDLr-/- mouse on Western diet, liver; dose not given, 4 weeks).
